Measurements from different studies.
Parts stem from different laboratories: compare values within a part only. Positions count from the first letter of the parent shown.

Sample 1
Target: ABI1, truncated, D143A, DHFR fusion (Arabidopsis thaliana)
Method: DHFR PCA, deep sequencing
Matrix: yeast
Setting: methotrexate growth selection, single substitutions
Together with: (+)-ABA 0.032 µM
Relative to: wild-type fitted maximum
Direction: higher = stronger binding
Parent: PYL1, truncated, DHFR fusion (Arabidopsis thaliana); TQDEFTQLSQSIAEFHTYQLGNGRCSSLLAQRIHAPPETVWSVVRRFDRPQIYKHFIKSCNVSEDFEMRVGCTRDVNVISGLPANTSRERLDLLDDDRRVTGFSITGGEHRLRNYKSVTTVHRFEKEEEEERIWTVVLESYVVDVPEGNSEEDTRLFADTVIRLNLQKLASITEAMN; partner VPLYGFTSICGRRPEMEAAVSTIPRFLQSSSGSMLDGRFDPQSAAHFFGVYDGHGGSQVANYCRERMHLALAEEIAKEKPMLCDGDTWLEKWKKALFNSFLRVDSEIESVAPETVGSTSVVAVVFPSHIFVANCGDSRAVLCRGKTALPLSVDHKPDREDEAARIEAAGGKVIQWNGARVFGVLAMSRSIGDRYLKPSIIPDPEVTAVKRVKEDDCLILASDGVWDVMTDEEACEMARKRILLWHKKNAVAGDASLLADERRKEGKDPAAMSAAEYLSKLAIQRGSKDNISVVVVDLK
Change | relative binding score [%]
V43F | -2.88
D48F | 5.25
Q51M | -4.36
E152Y | 2.51
S117E | 1.04
E152H | 3.91
H34W | 10.7
A35E | 1.81
E89A | -2.38
I133T | 36
E174I | -4.85
L169K | -3.8
S140P | 8.58
E130R | 24.6
G108A | 3.06
F124A | 7.34
H122L | 1.88
E147I | 7.91
E64H | 24.8
I172W | -0.803
I33D | 2.7
V136A | 3.95
R49W | 1.13
E127W | 11
R69G | 4.7

Sample 2
Target: Sal-like protein 4, full length isoform B (SALL4, Homo sapiens, UniProt Q9UJQ4-2, residues 1-616)
Method: universal PBM
Molecule type: double-stranded DNA, one strand shown
Matrix: in vitro
Tested at: not given
Setting: 8-mer, flanks averaged, mean of replicates
Direction: higher = stronger binding
Oligonucleotide | E-score
AAGTAAAC | 0.194
CTGTGGTA | 0.0147
ACTGGTTC | -0.0919
AGAATCAG | -0.0492
CCTCATAC | 0.142
ATCTGTAA | 0.147
CTCCGGGC | -0.364
TGATGGCA | 0.0273
CATTCTAA | 0.138
CCAAAATC | -0.0535
CTCGGGTA | -0.11
GAATTCTC | -0.0233
GATGTGCC | -0.034
CAACAATA | 0.337
CATCAGGC | -0.164
AGCTATTC | 0.0216
TACTGAAA | 0.286
ACTGTCGG | -0.247
ACATTCTG | 0.105

Sample 3
Target: CCNB2, cyclin fold, Cln2 fusion (human)
Method: yeast growth competition, sequencing
Matrix: yeast
Setting: weak parent motif
Relative to: not given
Direction: higher = stronger binding
Parent: ASZ1 docking peptide (human); GFGFLLFICKLTF; partner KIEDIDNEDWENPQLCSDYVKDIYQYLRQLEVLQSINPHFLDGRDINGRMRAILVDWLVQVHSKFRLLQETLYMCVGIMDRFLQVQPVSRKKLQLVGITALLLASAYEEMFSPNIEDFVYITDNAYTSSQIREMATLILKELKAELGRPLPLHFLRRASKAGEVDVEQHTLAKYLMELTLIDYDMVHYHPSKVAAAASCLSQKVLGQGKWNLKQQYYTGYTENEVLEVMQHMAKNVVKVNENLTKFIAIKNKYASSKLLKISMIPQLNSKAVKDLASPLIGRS
Change | normalised enrichment score
F7A | 0.0717
T12A | 0.0846
F4A | 0.297
F2A | 0.437
G3A | 0.808
L11A | 0.544
I8A | 0.269

Sample 4
Target: UBE2V2 UBC core domain (UniProt Q15819)
Method: yeast two-hybrid
Matrix: yeast
Setting: mostly zero background
Relative to: not given
Direction: higher = stronger interaction
B1: CNOT4 RING domain (UniProt O95628); chain MSRSPDAKEDPVECPLCMEPLEIDDINFFPCTCGYQICRFCWHRIRTDENGLCPACRKPYPED
B2: TRIM11 RING domain (UniProt Q96F44); chain LSTNLQEEATCAICLDYFTDPVMTDCGHNFCRECIRRCWGQPEGPYACPECRELSPQRNLRP
B3: ARIH2 RING domain (UniProt O95376); chain HVPTSHPPHHCAVCMQFVRKENLLSLACQHQFCRSCWEQHCSVLVKDGVGVGVSCMAQDCPLRTPEDFVF
B4: MID2 RING domain (UniProt Q9UJV3); chain KMETLESELTCPICLELFEDPLLLPCAHSLCFSCAHRILVSSCSSGESIEPITAFQCPTCRYVISLNHRGL
B5: HLTF RING domain (UniProt Q14527); chain LILSSGSDEECAICLDSLTVPVITHCAHVFCKPCICQVIQNEQPHAKCPLCRNDIHEDNLLE
B6: NFX1 RING domain (UniProt Q12986); chain IEQLTTEKYECMVCCELVRVTAPVWSCQSCYHVFHLNCIKKWARSPASQADGQSGWRCPACQNVSAHVPNTY
B7: RING1 RING domain (UniProt Q06587); chain SPRSLHSELMCPICLDMLKNTMTTKECLHRFCSDCIVTALRSGNKECPTCRKKLVSKRSLR
Target sequence (chain): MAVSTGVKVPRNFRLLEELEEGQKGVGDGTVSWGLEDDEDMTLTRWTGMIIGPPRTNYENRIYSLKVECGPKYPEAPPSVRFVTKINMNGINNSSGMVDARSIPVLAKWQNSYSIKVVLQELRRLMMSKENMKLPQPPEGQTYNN
Molecule | lacZ reporter activity
B1 (CNOT4 RING domain) | 0
LVKDFNPYITCYICKGYLIKPTTVTECLHTFCKTCIVQHFEDSNDCPRCGNQVHETNPLE (PCGF5 RING domain (UniProt Q86SE9)) | 0
B2 (TRIM11 RING domain) | 0
B3 (ARIH2 RING domain) | 0
ASPKIFQKTKCSICNSALELPSVHFLCGHSFHQHCFESYSESDADCPTCLPENRKVMDMI (VPS11 RING domain (UniProt Q9H270)) | 0
B4 (MID2 RING domain) | 0
B5 (HLTF RING domain) | 0
B6 (NFX1 RING domain) | 0
DDVLTKDAGECVICLEELLQGDTIARLPCLCIYHKSCIDSWFEVNRSCPEHPAD (ZNRF1 RING domain (UniProt Q8ND25)) | 0
B7 (RING1 RING domain) | 0

Sample 5
Target: Interferon regulatory factor 5, full length, phosphomimetic (IRF5, Homo sapiens, UniProt Q13568-2, residues 1-514, K96S/S451D/S453D/S456D/S462D)
Method: protein-binding microarray
Molecule type: double-stranded DNA, one strand shown
Matrix: in vitro
Tested at: 250 nM
Setting: 60-bp whole probe
Together with: salmon DNA 0.4 mg/ml
Relative to: random background probes
Direction: higher = stronger binding
Shared flanks, not repeated: GCCTAGCAC … GTCTTGATTCGCTTGACGCTGCTG
Oligonucleotide | log fluorescence
TTAGGTCTCAGTATCGGTTAGTGCTAG | 6.5 z-score
GACGGTATCGGGACAGGGGACGTGCTA | 1.28 z-score
TCAAATTTTAGTAACACACTGTGCTAG | 0.487 z-score
TTAGATTTCCTACTGCTTTAGTGCTAG | 0.516 z-score
CTTCCTCTTTCTCTGCTACCGTGCTAG | 1.34 z-score
GAAGGTCTCGGACTGGGGACGTGCTAG | -0.555 z-score
GACGGTATAGACACTGGGGACGTGCTA | -0.41 z-score
TCACGTCTCCACCTGGGACTGTGCTAG | -0.398 z-score
GAGGATCTCAGTTTCGAGACGTGCTAG | 4.59 z-score
TTAGATTTCAGTATTGATTAGTGCTAG | 2.72 z-score
TTAGATTTCAGTCACGATTAGTGCTAG | 1.98 z-score
TTAGGTCTCGGCCTCGGTTAGTGCTAG | -0.0989 z-score
TTTTTTTTTTTTTTTTGTATGTGCTAG | 1.61 z-score
CTCTTTCTTTGCTTCACCCTGTGCTAG | 1.27 z-score
CCTTTTTTTTTTTTTCTGATGTGCTAG | 0.95 z-score
GACGGTATCGGTTTGGGGACGTGCTAG | 6.28 z-score
GACGATCTCAGACTGGAGTCGTGCTAG | -0.23 z-score
TCAGCTGTCCTTTGCAAACTGTGCTAG | -0.106 z-score
GACGGTCTCCTAATCCTGACGTGCTAG | -0.239 z-score

A few entries again (sample 2):
Oligonucleotide | E-score
AAGTAAAC | 0.194
CTGTGGTA | 0.0147
ACTGGTTC | -0.0919
AGAATCAG | -0.0492
CCTCATAC | 0.142
ATCTGTAA | 0.147
CTCCGGGC | -0.364
TGATGGCA | 0.0273
CATTCTAA | 0.138
CCAAAATC | -0.0535
CTCGGGTA | -0.11
